Assay results of several laboratories.
Numbered parts are unrelated; each lists some results of a single study.

Series 1 — technique: universal PBM; form: double-stranded DNA, one strand shown; matrix: in vitro; tested at: 600 nM; reading: higher = stronger binding
Target: Sal-like protein 4, full length isoform A (SALL4, Homo sapiens, UniProt Q9UJQ4, residues 1-1053)
Chain of UniProt Q9UJQ4 (whole entry, looked up): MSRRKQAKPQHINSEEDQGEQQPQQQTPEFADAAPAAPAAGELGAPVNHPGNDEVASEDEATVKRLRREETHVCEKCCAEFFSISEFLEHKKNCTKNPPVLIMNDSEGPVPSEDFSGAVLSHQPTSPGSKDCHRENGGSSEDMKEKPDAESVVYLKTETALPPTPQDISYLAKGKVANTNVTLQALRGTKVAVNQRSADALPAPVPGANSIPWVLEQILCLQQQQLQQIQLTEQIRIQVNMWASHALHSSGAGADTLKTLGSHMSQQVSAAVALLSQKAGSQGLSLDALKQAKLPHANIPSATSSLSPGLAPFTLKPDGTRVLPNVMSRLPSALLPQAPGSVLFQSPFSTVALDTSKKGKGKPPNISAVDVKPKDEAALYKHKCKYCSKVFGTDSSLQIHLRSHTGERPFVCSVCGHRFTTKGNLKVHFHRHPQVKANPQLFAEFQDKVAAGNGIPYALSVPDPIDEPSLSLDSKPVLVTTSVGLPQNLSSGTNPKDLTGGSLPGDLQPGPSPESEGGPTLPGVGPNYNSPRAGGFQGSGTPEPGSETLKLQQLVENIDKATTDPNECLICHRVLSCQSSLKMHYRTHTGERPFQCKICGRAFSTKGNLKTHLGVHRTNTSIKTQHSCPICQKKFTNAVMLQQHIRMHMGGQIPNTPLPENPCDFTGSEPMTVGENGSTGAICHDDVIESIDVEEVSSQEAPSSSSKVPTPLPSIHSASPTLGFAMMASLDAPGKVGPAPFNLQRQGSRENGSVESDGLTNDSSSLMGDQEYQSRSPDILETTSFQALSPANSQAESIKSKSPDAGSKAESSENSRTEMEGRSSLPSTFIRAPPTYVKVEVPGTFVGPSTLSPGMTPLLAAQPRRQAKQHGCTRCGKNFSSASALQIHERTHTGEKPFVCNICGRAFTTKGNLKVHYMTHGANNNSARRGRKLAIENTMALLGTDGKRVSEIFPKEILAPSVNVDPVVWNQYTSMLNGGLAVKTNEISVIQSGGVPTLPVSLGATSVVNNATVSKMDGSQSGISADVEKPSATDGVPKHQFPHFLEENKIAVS
Notes: 8-mer, flanks averaged, mean of replicates
Strand	E-score
ACGAACTA	0.0949
GCACACTA	-0.0733
GTCCCATA	0.0711
AGAGTCCT	-0.194
CCCCTGGA	-0.367
CCACAGTA	0.0424
CCACGGAA	-0.107
CACGTGCG	-0.231
AGGAGCAA	-0.0658
AGCTCGGG	-0.291
CGACCCCA	-0.165
AGAAGAAA	0.0968
GCCATACC	-0.251
TAGTCCCA	-0.0189
CCTGACAG	-0.0724
AGCCCCGC	-0.279
ATGCGAAT	0.223
AATTCCAG	-0.0233

Series 2 — technique: protein binding microarray; form: double-stranded DNA, one strand shown; matrix: in vitro; tested at: not given; reference: not given; reading: higher = stronger binding
Target: Histone acetyltransferase KAT6A, winged helix 1, GST fusion (KAT6A, Homo sapiens, UniProt Q92794, residues 1-85)
Notes: 8-mer, flanks averaged, mean of 2 arrays, mostly near background
Construct (chain): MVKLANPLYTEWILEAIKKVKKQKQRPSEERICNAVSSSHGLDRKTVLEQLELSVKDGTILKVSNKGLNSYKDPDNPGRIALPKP
Strand	E-score
ACCCAGAA	-0.255
TAACATTA	-0.0698
GGCCCACC	0.052
ATGGTCGA	-0.133
AGGGTACT	-0.0672
GGTCCCCA	-0.0402
GACCGAAA	-0.0237
CGTCTCGC	0.238
AGTAGTCG	-0.0229
TGACTCCA	-0.341
GAAGGTCA	-0.0439
AAACTACA	-0.126
AGCCGGGA	0.0773
CTCTAAAC	-0.0719
ATGGAACC	0.0519
CCATTACC	0.00238
AAGAGCGA	0.0169
CCCACAAA	-0.204
CTGCGTCA	0.0643
GTAAGACA	-0.0327
AGGTATAA	-0.133
GATTCAGC	0.0329
CGGCCAAG	0.211
CCTTCACA	-0.168
CTATAGTC	-0.0238

Series 3 — technique: RNA Bind-n-Seq; form: RNA; matrix: in vitro; tested at: 365 nM; reference: no-protein control; reading: higher = stronger binding
Target: RNA binding protein fox-1 homolog 2, RRM domain, GST-SBP tag (RBFOX2, Homo sapiens, UniProt O43251-10, residues 100-194)
Notes: natural RNA segment, single round, ends assumed
Shared flanks, not repeated: GGGAGUUCUACAGUCCGACGAUC … UGGAAUUCUCGGGUGCCAA
Residues (chain): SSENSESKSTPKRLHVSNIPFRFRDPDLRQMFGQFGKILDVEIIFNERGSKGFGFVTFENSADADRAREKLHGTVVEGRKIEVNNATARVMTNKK
Strand	RBNS enrichment (R)
CCAAGUGGCCUUGUCCCAGCUCCCCCUGCCCCCCCCAAGGCUGGUGUGAGUGUGCAAGUAUGUGUGCAGAGCUUGUGUUUCAUACUGCAGAUAUAAAUAAAGGAAGAUAG	1.29
UUUGAGUAAUAUAUUUUUAAGAACACCACUGGUCCUGUAAGUCUUGCCUCCUUGGCUUCUACUAGAGCAAAAUCUGCUGCCAAGUCAGCCUGGUUUCUGGUUGUGUUCUU	0.266
UUCUAAAAAAUGUCAGGUUUUUAAAAUCAUUUACCUUAUUAAAAUGAAAAGUGCCAUACUUAACUUUUAAAGGAAAGACCUGACUUGCUUUUUCUCUAUUUAGACUGUUU	0.41
GUGUACAGUAUGUGUGGAAUAAAAAAGGGAAACUGUUUUCACAAGCUGUUGUUUGUUUCAUAAUUGGAUCAGUCCAUAGCUACCCACAUUGCACUGAGCUUGCCAGUGGU	0.43
AAAAUCAUGUUCUCUAUUUAUGACUCUUCCUAGGGCAAUGUGUCUGGACAGAUUGUAAGAGUAAGUCAUUUUCCUAAAGAAUUAGAUAUUUGUCACUGCCUAUACCUGCA	1.36
GUGCCUCUACCAUGUCUGCUGUUUGGGUCUCUGCGCUGUGUGUUCUCAGGUGCAGCCAUGACUCCCCACUCUGUGCAUUCCACCUUCCAGUUGUUUUUCUCUGAGGGGGU	0.268
GCUAGGCUGAACUGUAUGUUACUGUUUUCAUGCUUAUACAUAUAUUUUCAAUCACAUACAAGUACAUAGAAUUUCACAUUUUAAUUUAGCAAAUUGAUUUACCUAGGAAA	0.489
GGGUCUGCAGGUGUCACAUGAUCACAGUUCAGCGGGAGGCUUUCCGUACCCACACUGGCUGUAGCCACUUCAGUCCAUCUGCCCUCCAGAGGAGGGGUUUCUUCCUGAUU	0.298
UUGGGUCAAUAUUGACUGAUCAGUAGUAGGUCUUUUACCAUUCUGGACAUAAGUCUAGGUGUAGAAAUCCUUUCCUUUAUCAUAGAGGAUAUGGUUUACAUUACCGUUUG	0.357
CAGUGAGUGUAGAGUGAAAGUCCUCCAUGUAGUAUUUUCCUGCCCCAGACCAGUCUUAUAGUAAAUAAGCAGAGUUCUGUGUCAGCUCAUGGCUGAUCUCUCCUCAAAGA	0.377
AAAAAAUAGAAAUAAAACAAUCUCCCUCCAUAAUGUGAGCAAUAUUACCUCGUGCAUUGUAUAAUUUGAUGUAAAAGAAAUAGUUACCAAUGCUAGCUUGUGUGGUCUUC	0.516
UGCUGUUAAAUAUGCAAAUAGUUUAAUCUUUUUUUCUUUUGUUGUUUGAUGGGAAAUUGUGACAUUCCAAGUUGACUUUUUUUUAUUAUCUGAAUUAAAAUUUGAAACUC	0.618

Series 4 — technique: protein-binding microarray; form: double-stranded DNA, one strand shown; matrix: in vitro; tested at: 250 nM; notes: 60-bp whole probe; with: salmon DNA 0.4 mg/ml; reference: random background probes; reading: higher = stronger binding; shared flanks, not repeated: GCCTAGCAC … GTCTTGATTCGCTTGACGCTGCTG
Target: Interferon regulatory factor 5, full length, phosphomimetic (IRF5, Homo sapiens, UniProt Q13568-2, residues 1-514, K96S/S451D/S453D/S456D/S462D)
Strand	log fluorescence [z-score]
TTAGCTATCCTTCTCCTTTAGTGCTAG	0.354
TCACTTATCCAATCAGAACTGTGCTAG	0.438
GACGGACTGCATATCCTGACGTGCTAG	-0.489
GACAATTTCAGTATCGAGACGTGCTAG	5.08
TCAAGTTTCACTGCTGCACTGTGCTAG	4.06
GATGGTATCGGTCTCGGGACGTGCTAG	6.75
GACGGTCTGGGGTATCGGGACGTGCTA	0.151
TGAAATCTCTTTCCTTACTTGTGCTAG	1.45
GTCGGACTGCTACTGCTGACGTGCTAG	-0.501
TTAGATATCAGGTTCGATTAGTGCTAG	1.12
GACGGTCTCCTTCCCCTGACGTGCTAG	-0.0767
CTCCCCTTGCTTTCCAATTCGTGCTAG	-0.000285
GACGGACTGGGTTTCGGTACGTGCTAG	6.73
TTAGATTTCAGTTCCGGTTAGTGCTAG	4.03
TCACATACTAGTTTCCAACTGTGCTAG	0.471
CAAAACATCATTGTCATATAGTGCTAG	0.883
CTTTAACTTATTCTCTACTTGTGCTAG	0.786
GCCGAACTGAGACTGGAGACGTGCTAG	-0.494
TTAGATCTCAGTCTCGATTAGTGCTAG	0.911
TCAGAGCTCCTCCTTCTCACTGTGCTA	-0.462
TCAGACTTGATTTTGGTACTGTGCTAG	0.318
GACGATAGCGGGTATCGAGACGTGCTA	0.783
TTAGATTTCGGGACTGGTTTAGTGCTA	2.64
AGGCATGTGGGTTCCATCATGTGCTAG	-0.473

Series 5 — technique: RNA Bind-n-Seq; form: RNA; matrix: in vitro; tested at: not given; reference: input RNA pool; reading: higher = stronger binding
Target: RING finger protein unkempt homolog, zinc fingers 1-6, GST-SBP tag (UNK, Homo sapiens, UniProt Q9C0B0, residues 30-357)
Notes: RNA with constant flanks, human-mouse chimeric sites, ends assumed
Shared flanks, not repeated: GGGAGUUCUACAGUCCGACGAUC … CAACAGAGGAUUGAGCAUCA
Residues (chain): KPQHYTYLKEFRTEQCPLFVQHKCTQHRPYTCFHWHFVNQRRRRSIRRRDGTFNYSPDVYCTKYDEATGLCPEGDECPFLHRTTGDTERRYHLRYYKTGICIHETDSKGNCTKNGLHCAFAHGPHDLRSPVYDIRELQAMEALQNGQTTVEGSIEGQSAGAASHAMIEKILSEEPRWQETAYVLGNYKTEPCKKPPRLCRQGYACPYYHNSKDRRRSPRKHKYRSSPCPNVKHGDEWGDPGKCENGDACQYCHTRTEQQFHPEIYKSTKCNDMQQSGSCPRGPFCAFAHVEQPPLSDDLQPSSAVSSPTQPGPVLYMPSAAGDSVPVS
Strand	bound/input enrichment [ratio]
AGAGAAAUGAGAAAGAAUCUUACACAAGAAGAGAUGCAAAGAAUGUCUACUAGAGUCCUUUUAGCCACUCUUUCCAUUCCUAUUACUCCUGAGCGUACUGAUAUUGCUCGACUUUUGGAU	0.144
UCUGGCCACACUCGUGUAUAUGGUGUGUGCUUUGUGGACACUUCACUGGGCAAGUUUUUCAUCGGCCAGUUUUCGGAUGACCGCCACUGUUCCAGAUUUAGGACGCUAGUGGCUCACUAU	0.203
AACAGAUUGUCUUUAAGGUCAACGUAGAAUGCUUGGGGGGUGAUCAUUGUUGCCCAUGUGCCUUCUGACUGAGCUUUAAUGCUGUUCCAUGUUACAUCUUUCCUUCACUCCAGAAUUGUU	0.191
CAGUCCCCGUGUCCCAGUGCAGGACGAUGUGAACAAAUCGAAGACAUGGACCCUCUACUGUAGUUGAUGAUUCUCGAAAUGUGCUAUUAUUGUUUGUCUUUUUUUUUUUUUUUUUAAAGA	0.984
GCUGAAAAUGAAGAAGAGGCAGCUGAUGUCUGGUACAACCUGGGGCAUGUAGCUGUGGGAAUAGGAGAUACAAACUUGGCCCACCAAUGCUUCAGGCUGGCCCUGGUCCACAACAACCAC	0.269
CGCAGAAGGUUAAAGGGUGAGAGUGGGGUGGAAGACUGUGUCAUGGCUCUGGAGACACUGUUCAGUGUCCUGCUUUCUCUGUGCAGACUGAUGGCCCCCUACACACCCUUUCUGACUGAG	0.0613
UCUUAACUUAUUCAUUUCUUAUUUUUAUAUAGCUAGAUAAAUAUUGUUAGUCUUAGUCAAUAGCUCACAUUUUUUGAGAAGCAUGCCCUCCCUGUCCAUUUGUCUUAUAACAUGACCCAG	189
CAGCCUCAGAGCCCAGACUUCCUGGAUAUUACCAACCCCAAAGCCGUAUUAGAAAAUGCACUUAGGAACUUCGCCUGUCUGACGACUGGAGAUGUGAUUGCUAUCAACUACAAUGAGAAG	1.28
AGAAAGCAAAACUUGGAACGAUUUAAGAAAGGAGAUGUAAGAUUCUUGAUUUGCACAGAUGUAGCUGCUAGAGGGAUUGAUAUCCACGGCGUUCCUUAUGUGAUCAACGUCACCCUGCCU	0.211
AAAGAGUGGAUAGAGUGUGCACACGGGAUCGGUGGGACCCGGGCGAAAAAGGAGUGCAAGAUAGAGUAUGAUGAUUUCGAAGAGUGCUUGCUUCGGCACAAAACGAUGAGGCGAAUGCAU	0.794
AGCGUUCAGGAAUUCAUGACCUUUACAAGUCAACUGAUUGUGGAACGCUCGGGGAAAGGCAGCAGAGCUUCUGUCAAAGAACAAGACUAUCUUUGCCAUGUCUACGUCCGGAGCGACAGU	0.0759

For quick reference, copied from above (series 2):
Strand	E-score
TGACTCCA	-0.341
GAAGGTCA	-0.0439
AAACTACA	-0.126
AGCCGGGA	0.0773
CTCTAAAC	-0.0719
ATGGAACC	0.0519
